Measurements pooled from the literature.
Numbered parts are unrelated; each lists some results of a single study. ± gives the spread as reported. ≈ marks a conversion by molar mass, not a printed value.

Set 1 — organism: SARS-CoV-2 Wuhan spike VSV pseudovirus; observed: pseudovirus entry; concentration: concentration not given
With `COc1ccc(-c2ccc(Nc3ccc(C)c(C)c3)nn2)cc1S(=O)(=O)N1CCCC1` the inhibition was 42%.
For `Cc1csc(NC(=O)C2CCN(S(=O)(=O)c3cc(C(=O)N4CCCCCC4)cs3)CC2)n1`, the inhibition was 38%.
`CCCS(=O)(=O)c1ncc(Cl)c(C(=O)N(Cc2ccccc2)c2ccccn2)n1` has an inhibition of 37%.
The inhibition of `Cc1nc(-c2ccc(C)c(S(=O)(=O)N3CCC(C(=O)NC4CCCc5ccccc54)CC3)c2)no1` (centres unmarked) is reported as 36%.
The inhibition of `CCOC(=O)c1ccc2c(c1)[C@@H]1C=CC[C@@H]1[C@H](c1ccccc1OCc1ccccc1)N2` is reported as 43%.
`CCCCOc1ccc(C(=O)Nc2nc3ccc(S(=O)(=O)N(C)C)cc3s2)cc1` has an inhibition of 40%.
For `O=C(Cn1ncc(Cl)c(Cl)c1=O)NCCC1=CCCCC1`, the inhibition was 44%.
`Cc1nc(N2CCCCCCC2)ncc1C(C)NC(=O)c1c(C)noc1C` (centres unmarked) has an inhibition of 50%.
`CC(C)c1cc(C(=O)NCc2noc(-c3cccs3)n2)n(C)n1` gave an inhibition of 40%.
For `Cc1oc2ncnc(N3CCC(C(=O)NCc4cccs4)CC3)c2c1C`, the inhibition was 45%.
`Cc1ccc(S(=O)(=O)c2ccc(C(=O)NC3CCN(Cc4ccccc4)CC3)cn2)cc1C` has an inhibition of 37%.
`NC(=O)c1snc(C(=O)N(Cc2ccccc2)C2CCN(Cc3ccccc3)CC2)c1N` gave an inhibition of 42%.
For `Cc1oc2ncnc(N3CCCC(C(=O)NCCCc4ccccc4)C3)c2c1C` (centres unmarked), the inhibition was 43%.
`O=C1CN(c2ncnc3sc4c(c23)CCCCC4)CCN1` gave an inhibition of 37%.
For `CC(C)CN1CC(C(=O)NCc2nncn2C2CCCCC2)CC1=O` (centres unmarked), the inhibition was 41%.
With `Cc1ccc(C(=O)NCCC2=CCCN(C3C=CCCC3)C2)cc1F` (centres unmarked) the inhibition was 38%.
For `COc1ccc(C(CC(=O)c2ccco2)Sc2cccc3cccnc23)cc1OC` (centres unmarked), the inhibition was 42%.
For `c1ccc(-c2ncn(CCc3c[nH]cn3)c2-c2ccncc2)cc1`, the inhibition was 40%.
With `Cc1ccc(NC(=O)c2cc3cc(N(C)S(C)(=O)=O)ccc3s2)c(C)c1` the inhibition was 42%.
For `C#CCOc1ccc(C2C(C#N)=C(N)Oc3cc4c(cc32)OCO4)cc1Cl` (centres unmarked), the inhibition was 43%.
`O=C(CC1C(=O)NCCN1Cc1ccccc1C(F)(F)F)NCCn1cccn1` (centres unmarked) has an inhibition of 42%.
`CN1CCN(CCNC(=O)Nc2ccccc2-c2ccccc2)CC1` has an inhibition of 43%.
With `CCN1CCN(Cc2ccc(NC(=O)c3cc4c(C)nn(-c5ccc(Cl)cc5)c4s3)cc2)CC1` the inhibition was 44%.
With `CN1CCC2(CC1)CN(C(=O)c1cnc(-c3ccccc3)nc1)CCN2C` the inhibition was 38%.
The inhibition of `O=C(NC1CCN(Cc2ccccc2)CC1)c1cccc(Nc2cc(-c3ccc(F)cc3)ncn2)c1` is reported as 38%.

Other studies, line by line
Matrix protein 2 V27A: Matrix protein 2 (Influenza A virus, UniProt P0DOF5, V27A)
Spike glycoprotein S2 subunit: Spike glycoprotein, S2 subunit (Severe acute respiratory syndrome coronavirus 2, UniProt P0DTC2)
For `NNC(=O)c1ccncc1`, the IC50 was 310 nM (Mycobacterium tuberculosis; bacterial growth; fluoroquinolone-resistant).
`CC#CCn1c(N2CCC[C@@H](N)C2)nc2c1c(=O)n(Cc1nc(C)c3ccccc3n1)c(=O)n2C` gave an IC50 of 1920 nM (SARS-CoV-2; viral replication; Vero E6, B.1.351 (Beta); 48 h).
`NCC12CC3CC(CC1C3)C2` has an inhibition of 0% (Matrix protein 2 V27A; concentration not given, pH 5.5, cell-based).
For `Cc1cc2c(C(C)C)c(O)c(O)c(C=O)c2c(O)c1-c1c(C)cc2c(C(C)C)c(O)c(O)c(C=O)c2c1O`, the ΔTm was -1.28 °C (Spike glycoprotein S2 subunit; S2 subunit).
`CN(C)c1ccc(N(Cc2cc(Cl)cs2)C(=O)Cc2cncc3cccc(O)c23)cc1` gave an EC50 of 30 to 50 nM (SARS-CoV-2; viral replication; BQ.1.1 and XBB.1.5; two human cell lines).
`N#C[C@@]1(c2ccc3c(N)ncnn23)O[C@H](CO)[C@@H](O)[C@H]1O` has an EC50 of 490 nM (SARS-CoV-2; viral replication; Omicron BA.1; 24 h).
For `CC(C)(C)[C@H](NC(=O)C(F)(F)F)C(=O)N1C[C@H]2[C@@H]([C@H]1C(=O)N[C@H](C#N)C[C@@H]1CCNC1=O)C2(C)C`, the EC50 was 68 nM (SARS-CoV-2; viral replication; A549, delta variant hCoV-19/USA/MD-HP05647/2021; 72 h).
The IC50 of `N=C(N)c1ccc2cc(OC(=O)c3ccc(N=C(N)N)cc3)ccc2c1` is reported as 20 nM (Calu-3; pseudoparticle entry; SARS-CoV-2 spike pseudotyped particles).
For `CC[C@@]1(O)C[C@H](O[C@H]2C[C@H](N(C)C)[C@H](O[C@H]3C[C@H](O)[C@H](O[C@H]4CCC(=O)[C@H](C)O4)[C@H](C)O3)[C@H](C)O2)c2c(cc3c(c2O)C(=O)c2c(O)cccc2C3=O)[C@H]1C(=O)OC`, the IC50 was about 100 nM (SARS-CoV-2 variants; viral replication; Calu-3; range over variants).
With `C[C@@H](OC(C)(C)C)[C@H](NC(=O)OCc1ccccc1)C(=O)N[C@@H](CC1CCCCC1)C(=O)NN(CCC(N)=O)C(=O)C(Cl)Cl` the EC50 was 10 nM (SARS-CoV-2; viral replication; delta variant hCoV-19/USA/MD-HP05647/2021).
For `Cc1cc(C(=O)N[C@@H](Cc2cccc3ccccc23)C(=O)N[C@@H](CC(C)C)C(=O)N[C@H](C=O)C[C@@H]2CCCNC2=O)no1`, “EC50 fold change” read 0.15 ± 0.02 (SARS-CoV-2; viral replication; Omicron BA.1 T21I/E166V replicon; baseline: BA.1 wild type).
The MIC of `NNC(=O)c1ccncc1` is reported as 0.62 µM (≈ 0.085 µg/mL) (Mycobacterium tuberculosis; H37Rv Pks13 resistant mutants).
`N#C/C(=C/c1ccc(O)c(O)c1)C(=O)NCc1ccccc1` gave a ΔTm of -0.24 °C (Spike glycoprotein S2 subunit; S2 subunit).
`CC(C)(C)[C@H](NC(=O)C(F)(F)F)C(=O)N1C[C@H]2[C@@H]([C@H]1C(=O)N[C@H](C#N)C[C@@H]1CCNC1=O)C2(C)C` has an inhibition of 100% (SARS-CoV-2; viral replication; VeroE6/TMPRSS2, Omicron variants; 0.9 µM).
`N[C@@H](CC(=O)N1CCn2c(nnc2C(F)(F)F)C1)Cc1cc(F)c(F)cc1F` has an IC50 of 1890 nM (SARS-CoV-2; viral replication; Vero E6, B.1.617 (Kappa); 48 h).
`CC(C)(C)[C@H](NC(=O)C(F)(F)F)C(=O)N1C[C@H]2[C@@H]([C@H]1C(=O)N[C@H](C#N)C[C@@H]1CCNC1=O)C2(C)C` has an IC50 of 4860 ± 730 nM (SARS-CoV-2; viral replication; Vero C1008, Omicron BA.5; 96 h).
The EC50 of `CCO` is reported as 9.45 % v/v (SARS-CoV-2; virucidal activity, Viral ToxGlo; A549-hACE2, Delta B.1.617.2; 1 h, 37 °C).
Under “dsRNA unwinding activity”, `C=CCn1c(CSc2ccccc2[N+](=O)[O-])n[nH]c1=S` is recorded as “inhibited” (Replicase polyprotein 1ab, nsp13 R392C (rep, Severe acute respiratory syndrome coronavirus 2, UniProt P0DTD1, R5716C); inhibitor, gel; SARS-CoV-2; concentration not given).
`Cn1cnc(Cn2c(=O)[nH]/c(=N\c3cc4cn(C)nc4cc3Cl)n(Cc3cc(F)c(F)cc3F)c2=O)n1` has an IC50 of 520 nM (Severe acute respiratory syndrome coronavirus 2; viral replication, inhibitor; Vero C1008; 96 h).
The MIC of `COc1nc2ccc(Br)cc2cc1[C@@H](c1ccccc1)[C@@](O)(CCN(C)C)c1cccc2ccccc12` is reported as 0.31 µM (≈ 0.172 µg/mL) (Mycobacterium tuberculosis; H37Rv Pks13 resistant mutants).
`C[C@H]1COc2c(N3CCN(C)CC3)c(F)cc3c(=O)c(C(=O)O)cn1c23` gave an IC50 of 57000 nM (Mycobacterium tuberculosis; bacterial growth; fluoroquinolone-resistant).
With `N=C(N)NCC12CC3CC(CC1C3)C2` the inhibition was 0% (Matrix protein 2 V27A; concentration not given, pH 5.5, cell-based).
With `CC(C)(C)[C@H](NC(=O)C(F)(F)F)C(=O)N1C[C@H]2[C@@H]([C@H]1C(=O)N[C@H](C#N)C[C@@H]1CCNC1=O)C2(C)C` the EC50 was 5 nM (SARS-CoV-2; viral replication, replicon; A5328V Mpro cleavage-site mutant).
`CCC(CC)COC(=O)[C@H](C)N[P@](=O)(OC[C@H]1O[C@@](C#N)(c2ccc3c(N)ncnn23)[C@H](O)[C@@H]1O)Oc1ccccc1` has an EC50 of 0.3 nM (SARS-CoV-2; viral replication; Omicron BA.1; 24 h).
`C[C@H](CCC(=O)[O-])[C@H]1CC[C@H]2[C@@H]3CC[C@@H]4C[C@H](O)CC[C@]4(C)[C@H]3CC[C@]12C.C[N+](C)(C)CCO` gave an EC50 of 31.7 ± 4.72 µg/mL (SARS-CoV-2 Delta variant; virucidal activity; A549-hACE2, B.1.617.2; 72 h post infection, virus pretreated 1 h, 37 °C).

A few entries again (set 1):
For `Cc1oc2ncnc(N3CCC(C(=O)NCc4cccs4)CC3)c2c1C`, the inhibition was 45%.
`Cc1ccc(S(=O)(=O)c2ccc(C(=O)NC3CCN(Cc4ccccc4)CC3)cn2)cc1C` has an inhibition of 37%.
`NC(=O)c1snc(C(=O)N(Cc2ccccc2)C2CCN(Cc3ccccc3)CC2)c1N` gave an inhibition of 42%.
For `Cc1oc2ncnc(N3CCCC(C(=O)NCCCc4ccccc4)C3)c2c1C` (centres unmarked), the inhibition was 43%.
`O=C1CN(c2ncnc3sc4c(c23)CCCCC4)CCN1` gave an inhibition of 37%.
For `CC(C)CN1CC(C(=O)NCc2nncn2C2CCCCC2)CC1=O` (centres unmarked), the inhibition was 41%.
